{"data": "Measured values from different studies", "note": "± gives the spread as reported."}
{"Compound": "N=C(N/N=C/c1ccccn1)N/N=C/c1ccccn1", "cell line": "PANC-1", "assay": "crystal violet", "conditions": "72 h", "how to read": "baseline: IC50 hTERT-HPNE over IC50 PANC-1", "endpoint": "selectivity ratio", "value": 41.4}
{"Compound": "C(=C/c1ccccc1)/c1ccccc1", "cell line": "cord blood CD34+ cells", "assay": "apoptosis, Hoechst staining", "conditions": "24 h", "endpoint": "EC50", "value": "> 500000 nM"}
{"Compound": "COc1cc(CNC(=O)C[C@H](C)CCC=C(C)C)ccc1OCc1cn(-c2cccc(Cl)c2)nn1", "cell line": "NCI-H322M", "assay": "SRB", "conditions": "10 µM, 48 h", "endpoint": "growth percent", "value": "105%"}
{"Compound": "COC(=O)CC[C@@H](NC(=O)[C@@H](Cc1ccc(OP(=O)(O)O)cc1)NC(=O)[C@@H](Cc1ccccc1)NC(=O)[C@@H](Cc1ccccc1)NC(=O)Cc1ccc2ccccc2c1)C(=O)OC", "cell line": "SAOS-2", "assay": "MTT", "conditions": "10 µM, together with: necrostatin-1 50 µM", "endpoint": "viability", "value": "32%"}
{"Compound": "CC[C@H](C)[C@H](NC(=O)[C@H](CCCNC(=N)N)NC(=O)[C@H](CCC(N)=O)NC(=O)[C@@H](NC(=O)[C@@H](NC(=O)[C@H](CCCNC(=N)N)NC(=O)[C@H](CCCCN)NC(=O)[C@@H](N)Cc1ccccc1)[C@@H](C)CC)C(C)C)C(=O)N[C@@H](CCCCN)C(=O)N[C@@H](CC(=O)O)C(=O)N[C@@H](Cc1ccccc1)C(=O)N[C@@H](CC(C)C)C(=O)N[C@@H](CCCNC(=N)N)C(=O)O", "cell line": "LAD2", "assay": "agonist", "conditions": "3 µM, together with: Pseudomonas aeruginosa LPS 10 µg/mL, 5 min preincubation", "endpoint": "LPS effect on degranulation", "value": "no effect"}
{"Compound": "COc1cccc(OCCN2CCC[C@H](CN3CCc4cc(OC)c(OC)cc4CC3=O)C2)c1", "cell line": "mouse VTA dopamine neurons", "assay": "firing rate, cell-attached recording", "conditions": "750 µM, 3 min", "endpoint": "inhibition", "value": "90.6%"}
{"Compound": "COc1cc(CNC(=O)C[C@H](C)CCC=C(C)C)ccc1OCc1cn(-c2ccccc2F)nn1", "cell line": "NCI-H23", "assay": "SRB", "conditions": "10 µM, 48 h", "endpoint": "growth percent", "value": "68.2%"}
{"Compound": "CCN(CC)CC(=O)Nc1cccc(-n2cc(-c3ccc4ccc(-c5cn(-c6cccc(NC(=O)CN(CC)CC)c6)nn5)cc4c3)nn2)c1", "cell line": "RCC4", "assay": "luciferase reporter", "conditions": "10 x IC50, 4 h, hypoxia", "how to read": "baseline: hypoxic untreated", "endpoint": "HRE reporter activity", "value": "14.8%"}
{"Compound": "C=CC(=O)Nc1cc(Nc2nccc(-n3ccc4nc(OC)ccc43)n2)c(OC)cc1N(C)CCNC", "cell line": "PC-9, Ba/F3 EGFR G719A", "assay": "item: phospho-EGFR, phospho-AKT, phospho-ERK", "conditions": "concentration not given, 6 h", "endpoint": "EGFR phosphorylation", "value": "inhibited"}
{"Compound": "COc1ccc(C=C2SC(N3N=C(c4cccs4)CC3c3ccc(F)cc3)=NC2=O)cc1 (stereo not shown)", "cell line": "T47D", "assay": "PI flow cytometry", "conditions": "concentration not given, 24 h", "endpoint": "cells in %G0-G1 phase", "value": "40.8%"}
{"Compound": "CCCCCCCCCCCCCCCC(=O)N[C@@H](CCCCN)C(=O)N[C@@H](CCCCN)C(=O)N[C@@H](CO)C(=O)N[C@@H](CCCNC(=N)N)C(=O)N[C@@H](C)C(=O)N[C@@H](CC(C)C)C(=O)N[C@@H](Cc1ccccc1)C(N)=O", "cell line": "human platelets", "assay": "platelet aggregation, antagonist", "conditions": "3 µM, together with: thrombin", "how to read": "baseline: vehicle", "endpoint": "shift of thrombin concentration-response", "value": "5 fold"}
{"Compound": "COc1cc(CNC(=O)C[C@H](C)CCC=C(C)C)ccc1OCc1cn(-c2ccc(C#N)cc2)nn1", "cell line": "HOP-92", "assay": "SRB", "conditions": "10 µM, 48 h", "endpoint": "growth percent", "value": "65.2%"}
{"Compound": "CC(=O)OC[C@H]1O[C@@H](Sc2sc(C(=O)c3ccc(C)cc3)c(N)c2-c2nc3ccccc3s2)[C@H](OC(C)=O)[C@@H](OC(C)=O)[C@H]1OC(C)=O", "cell line": "TK-10", "assay": "SRB", "conditions": "10 µM, 48 h", "how to read": "baseline: untreated", "endpoint": "growth", "value": "125%"}
{"Compound": "COc1cc(CNC(=O)C[C@H](C)CCC=C(C)C)ccc1OCc1cn(-c2ccc(Cl)c(Cl)c2)nn1", "cell line": "TK-10", "assay": "SRB", "conditions": "10 µM, 48 h", "endpoint": "growth percent", "value": "90.7%"}
{"Compound": "O=Cc1c(O)ccc2ccccc12", "cell line": "HUVEC", "assay": "RNA sequencing, item: LURAP1L", "conditions": "75 µM, 24 h", "how to read": "baseline: DMSO", "endpoint": "log2 fold change", "value": 3.55}
{"Compound": "CC(=C(c1ccc(O)cc1)c1ccc(Cl)cc1)c1ccc(Cl)cc1", "cell line": "SN12C", "assay": "cell growth or viability", "endpoint": "GI50", "value": "510 nM"}
{"Compound": "Cc1ccc(N(CC2=NCCN2)c2cccc(O)c2)cc1", "cell line": "hiPSC cardiac tissues 3D", "assay": "active force", "conditions": "15 min per concentration, paced at 1 Hz serum-free", "endpoint": "minimum effective concentration", "value": "30 µM"}
{"Compound": "COc1cc(CNC(=O)C[C@H](C)CCC=C(C)C)ccc1OCc1cn(-c2ccccc2Cl)nn1", "cell line": "KM12", "assay": "SRB", "conditions": "10 µM, 48 h", "endpoint": "growth percent", "value": "63%"}
{"Compound": "COC(=O)CCC(=O)Oc1ccc(/C=C/C(=O)CC(=O)/C=C/c2ccc(O)c(OC)c2)cc1OC", "cell line": "MHCC97H", "assay": "Annexin V/PI flow cytometry", "conditions": "20 µM, 24 h", "endpoint": "apoptotic cells", "value": "39.2 ± 0.49%"}
{"note": "Some of these lines once more:"}
{"Compound": "COc1cc(CNC(=O)C[C@H](C)CCC=C(C)C)ccc1OCc1cn(-c2cccc(Cl)c2)nn1", "cell line": "NCI-H322M", "assay": "SRB", "conditions": "10 µM, 48 h", "endpoint": "growth percent", "value": "105%"}
{"Compound": "CC(=C(c1ccc(O)cc1)c1ccc(Cl)cc1)c1ccc(Cl)cc1", "cell line": "SN12C", "assay": "cell growth or viability", "endpoint": "GI50", "value": "510 nM"}
